Measurements of several laboratories.
Each numbered part is a random draw from the data of one study; scales do not carry over between parts.

Study 1
Target: Replicase polyprotein 1ab, polymerase (rep, Severe acute respiratory syndrome coronavirus 2, UniProt P0DTD1)
Read-out: enzyme activity
Action: inhibitor
Tested at: 20 µM
C[C@]12CCC(=O)C=C1CC[C@@H]1[C@@H]2[C@@H](O)C[C@@]2(C)[C@H]1CC[C@]2(O)C(=O)COC(=O)CCC(=O)O gave an inhibition of 30.1%.
Nc1nc2ccc(OC(F)(F)F)cc2s1 gave an inhibition of 6.18%.
CC(=O)[C@@]12O[C@](C)(c3ccccc3)O[C@@H]1C[C@H]1[C@@H]3CCC4=CC(=O)CC[C@]4(C)[C@H]3CC[C@@]12C gave an inhibition of 1.16%.
COc1ccc(/C=C\c2cc(OC)c(OC)c(OC)c2)cc1OP(=O)(O)O has an inhibition of 1.86%.
For O=C(O)c1cc2ccccc2s1, the inhibition was -1.86%.
Cc1cc(C)cc(OCC2CNC(=O)O2)c1 (stereo not drawn) gave an inhibition of -3.77%.
NC(=O)OC[C@@H]1[C@H](NC(=O)/C(=N\OCC(=O)O)c2csc(N)n2)C(=O)N1S(=O)(=O)O gave an inhibition of 2.42%.
For CC(CCc1ccc(O)cc1)NCCc1ccc(O)c(O)c1 (stereo not drawn), the inhibition was -8.43%.
The inhibition of CC(NCCC(c1ccccc1)c1ccccc1)c1ccccc1 (stereo not drawn) is reported as -9.59%.
The inhibition of C=C(NC(=O)C(=C)NC(=O)c1csc(C2=N[C@@H]3c4csc(n4)[C@H]4NC(=O)c5csc(n5)[C@H]([C@](C)(O)[C@@H](C)O)NC(=O)[C@H]5CSC(=N5)/C(=C/C)NC(=O)[C@H]([C@@H](C)O)NC(=O)c5csc(n5)[C@]3(CC2)NC(=O)[C@H](C)NC(=O)C(=C)NC(=O)[C@H](C)NC(=O)[C@H]([C@@H](C)CC)N[C@@H]2C=Cc3c([C@H](C)O)cc(nc3[C@H]2O)C(=O)O[C@@H]4C)n1)C(N)=O is reported as -4.29%.
CC(C)(CC(=O)N1CCCC1)NCC(=O)N1C[C@@H](F)C[C@H]1C#N has an inhibition of 1.03%.
For Cc1nccc2c1[nH]c1ccccc12, the inhibition was -9.85%.
For CCC1(c2ncc[nH]2)Cc2ccccc2O1 (stereo not drawn), the inhibition was 4.84%.
CN1CCc2c(c3ccccc3n2Cc2ccc(C(=O)NO)cc2)C1 gave an inhibition of -0.84%.
The inhibition of Cc1c(C2CCN(CCc3ccccc3)CC2)noc1-c1ccc(Cl)cc1 is reported as 0.15%.
With C[C@@H]1COCCN1c1cc(C2([S@](C)(=N)=O)CC2)nc(-c2cc[nH]c3nccc2-3)n1 the inhibition was -7.68%.
The inhibition of NC(=O)OCC(O)COc1ccc(Cl)cc1 (stereo not drawn) is reported as 0.32%.
Oc1ccc(OC2CCCCO2)cc1 (stereo not drawn) has an inhibition of -4.5%.
For CC(C)N(CCNC(=O)CN1CCCC1=O)C(C)C, the inhibition was -4.66%.
With Cc1cc(C)cc(C(=O)NOCCCCCC(=O)NO)c1 the inhibition was 17.3%.
For COc1cc2ncnc(Nc3cccc(Cl)c3)c2cc1OC, the inhibition was -1.52%.
CCCN(CCC)C(=O)Cc1c(-c2ccc(Cl)cc2)nc2ccc(Cl)cn12 gave an inhibition of -0.98%.
With Cc1cnc(Nc2ccc(N3CCN(C)CC3)cc2)nc1Nc1cccc(S(=O)(=O)NC(C)(C)C)c1 the inhibition was 6.06%.
The inhibition of CCc1cccc2c3c([nH]c12)C(CC)(CC(=O)O)OCC3 (stereo not drawn) is reported as 0.97%.
N[C@@H]1CN(c2c(F)cc3c(=O)c(C(=O)O)cn([C@@H]4C[C@@H]4F)c3c2Cl)CC12CC2 has an inhibition of 2.32%.

Study 2
Target: Interferon regulatory factor 3, full length, phosphomimetic (IRF3, Homo sapiens, UniProt Q14653, residues 1-427, S386D/S396D/S398D/S402D/T404D/S405D)
Technique: protein-binding microarray
Form: double-stranded DNA, one strand shown
Matrix: in vitro
Tested at: 2540 nM top
Setting: 60-bp whole probe
Added: salmon DNA 0.4 mg/ml
Relative to: random background probes
Direction: higher = stronger binding
All sequences stand within: GCCTAGCAC … GTCTTGATTCGCTTGACGCTGCTG
Residues (chain): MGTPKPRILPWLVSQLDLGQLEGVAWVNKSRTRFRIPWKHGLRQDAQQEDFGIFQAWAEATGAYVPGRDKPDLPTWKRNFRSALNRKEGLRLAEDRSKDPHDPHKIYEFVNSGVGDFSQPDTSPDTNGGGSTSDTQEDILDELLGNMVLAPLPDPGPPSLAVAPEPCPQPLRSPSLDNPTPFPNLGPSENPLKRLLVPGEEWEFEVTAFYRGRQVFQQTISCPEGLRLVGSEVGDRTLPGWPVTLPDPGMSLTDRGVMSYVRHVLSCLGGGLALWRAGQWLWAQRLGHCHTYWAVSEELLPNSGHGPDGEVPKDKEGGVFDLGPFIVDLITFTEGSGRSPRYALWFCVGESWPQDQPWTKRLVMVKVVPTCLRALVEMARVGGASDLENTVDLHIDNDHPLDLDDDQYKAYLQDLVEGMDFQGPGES
Under “fitted relative affinity”, `TCAAGGTCCCTTTTCATACTGTGCTAG` is recorded as 3.12 z-score.
For `TTAGGTTTCCTTTCCATTTAGTGCTAG`, “fitted relative affinity” read 10.5 z-score.
`TTAGATCTCAGTCTCGTTTAGTGCTAG`: “fitted relative affinity” 0.776 z-score.
Under “fitted relative affinity”, `TTAGGTATCCTTATCCTTAAGTGCTAG` is recorded as 5.71 z-score.
`TCATATACACTTATGACACTGTGCTAG`: “fitted relative affinity” 0.882 z-score.
`GACGATAACGGGACTGGAGACGTGCTA`: “fitted relative affinity” -0.496 z-score.
Under “fitted relative affinity”, `TCATTTCTTTGCTTCACACTGTGCTAG` is recorded as 1.96 z-score.
`GCCGAACTGAGTTTCGAGACGTGCTAG`: “fitted relative affinity” 2.19 z-score.

Study 3
Organism: Vesicular stomatitis virus
Read-out: pseudovirus infection
Technique: FDA-approved drug library screen
Tested at: concentration not given
Setting: SARS-CoV-2 spike pseudotype
Relative to: vehicle
For CC(C(=O)[O-])c1cccc(Oc2ccccc2)c1.CC(C(=O)[O-])c1cccc(Oc2ccccc2)c1.[Ca+2] (stereo not drawn), the GFP-positive cells was 77.2%.
With Cl.N=C(N)NN the GFP-positive cells was 89.1%.
For CN(C)CCC(c1ccc(Br)cc1)c1ccccn1.O=C(O)/C=C\C(=O)O (stereo not drawn), the GFP-positive cells was 78.6%.

Study 4
Target: RNA binding protein fox-1 homolog 2, RRM domain, GST-SBP tag (RBFOX2, Homo sapiens, UniProt O43251-10, residues 100-194)
Technique: RNA Bind-n-Seq
Form: RNA
Matrix: in vitro
Tested at: 365 nM
Setting: natural RNA segment, single round, ends assumed
Relative to: no-protein control
Direction: higher = stronger binding
Construct (chain): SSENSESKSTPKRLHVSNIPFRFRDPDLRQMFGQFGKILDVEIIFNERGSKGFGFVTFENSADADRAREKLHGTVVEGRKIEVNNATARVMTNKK
`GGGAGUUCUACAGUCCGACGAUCAUGUUAAUAAAACUUCUUGUAACGGCUAACUGCCACCUAAAAUAUGCUGGGUUUUCUGUUGUUUGAGUGUGUUAGAGAAAUUUGAAUGUUUUUGUCAGUUACGAGUCAGCUGGAAUUCUCGGGUGCCAA`: “RBNS enrichment (R)” 1.28.
Under “RBNS enrichment (R)”, `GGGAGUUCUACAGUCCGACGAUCGGCAGUACACAUUGUUAACAAUCGUGUAAUUAUAAUAAAUAUGUCUACCUACUCCUUGAACCAUGAAUUUUGCACACCUGAGGUUUAAUUUUCACCUAUUGAACUUUAUUUGGAAUUCUCGGGUGCCAA` is recorded as 0.379.
`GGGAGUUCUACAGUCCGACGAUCAUGUUAUAUUUUUUUUUAAAAAUAACUCUGAGUAGGGGUACCACUGAAUCUGUACAGAGCCGUACAAACCGAAGUUCUGCCUCUGAUGUACUUUGUGAAUUUGUUUCUUUUGGAAUUCUCGGGUGCCAA`: “RBNS enrichment (R)” 0.474.
`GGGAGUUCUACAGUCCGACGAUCAAACAAAACAAAAAGAAGAAAAGAUAAAAAGGAAGGCCAUUAUGGUCAGUAGCCCUAACCUCACUAACUGACAUACUCCCAAACCAGGCUUCUUGGGCCAGGUCUGUCCCUGGAAUUCUCGGGUGCCAA` — result for “RBNS enrichment (R)”: 0.289.
Under “RBNS enrichment (R)”, `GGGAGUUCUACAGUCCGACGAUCACCUCCGCAUCCACCCCCGUCCGCCAUCCUGCCCACCACCAGGUCGGUUCCCGAGGCCUGGCCUUUCCCUCUCCUGCUGAGAACCAGAACCCACCAGGAGCACCACAGAGUGGAAUUCUCGGGUGCCAA` is recorded as 2.04.
`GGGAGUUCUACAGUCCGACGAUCACCCCUGGGUUGUGGAGGGAAAUUGGCUCAGAGAUGGACAACCUGGCAACUGUGAGUCCCUGCUUCCCGACACCAGCCUCAUGGAAUAUGCAACAACUCCUGUACCCCAGUGGAAUUCUCGGGUGCCAA` — result for “RBNS enrichment (R)”: 0.6.
`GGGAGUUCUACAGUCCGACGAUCGCUGGUGUGUAUUUUUGUAAAUGUUAUGCACUCUGAAAGGAAAACACACAAAAGAAGAGAUUUUGUCGUUUUUUGUUUUGCCAAGGCCAGUGUUGCUGCCUAAAAAAAAAUGGAAUUCUCGGGUGCCAA`: “RBNS enrichment (R)” 1.13.
For `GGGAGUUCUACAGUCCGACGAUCUGCUUCUUUUAUUAGUAAUGUGGAUUGAUGUUUUCUCAGAGUAACUCGUUGUCUUUUCGCUUGAAAUUUUUGAUCUUGUCCUGAAGACUAGCUGCUGCUAAAACAAUGCUUGGAAUUCUCGGGUGCCAA`, “RBNS enrichment (R)” read 0.432.

Study 5
Target: Ras GTPase-activating protein-binding protein 1, C-terminal RGG region (G3BP1, Homo sapiens, UniProt Q13283)
UniProt Q13283, sequence (whole entry, looked up): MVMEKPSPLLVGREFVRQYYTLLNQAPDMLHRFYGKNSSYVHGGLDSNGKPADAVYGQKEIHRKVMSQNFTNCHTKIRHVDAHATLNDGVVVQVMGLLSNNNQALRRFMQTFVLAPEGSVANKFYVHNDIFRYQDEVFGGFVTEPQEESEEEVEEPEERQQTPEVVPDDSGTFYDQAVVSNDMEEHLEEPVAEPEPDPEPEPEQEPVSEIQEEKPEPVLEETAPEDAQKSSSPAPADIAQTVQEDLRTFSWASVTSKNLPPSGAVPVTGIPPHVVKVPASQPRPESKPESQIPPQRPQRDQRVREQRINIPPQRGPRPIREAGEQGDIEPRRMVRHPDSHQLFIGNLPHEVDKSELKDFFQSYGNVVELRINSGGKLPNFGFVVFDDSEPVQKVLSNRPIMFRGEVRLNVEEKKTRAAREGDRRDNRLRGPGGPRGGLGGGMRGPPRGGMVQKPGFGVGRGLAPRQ
Technique: RNA Bind-n-Seq
Form: RNA
Matrix: in vitro
Tested at: 1 µM
Setting: whole 134-nt RNA, ends assumed
Added: 150 mM KCl
Relative to: input library
Direction: higher = stronger binding
The log2 enrichment of `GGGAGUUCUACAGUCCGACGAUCAAGUCCUGUGCUACACAUCGUAUGUACCGAAUCGGGGAAAGGGAAAGGGGAAAGGGAAAGUAUUAUGUUACGCCGUUCGGAUCUGCACUUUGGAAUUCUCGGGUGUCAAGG` is reported as 0.996.
`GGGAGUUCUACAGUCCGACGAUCGCAGGAAGUAAAAACAAAUGGAAAUGCUUCGGAUAGUGGCAGGGGUGGGGGUUGCUAAGGAAAGGGUGGGAUGGGAGUGGGAAAAGAGUUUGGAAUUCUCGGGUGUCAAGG` gave a log2 enrichment of 2.06.
`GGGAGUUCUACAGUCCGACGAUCUCCUGUGCUACACAUCGUAUGUACCGAAUCGGGGUGGGGUUUUUGGGGAAAAAAAGGGGAAAGUAUUAUGUUACGCCGUUCGGAUCUGCAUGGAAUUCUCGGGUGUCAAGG` gave a log2 enrichment of 0.934.
`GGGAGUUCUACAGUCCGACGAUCCAAGUCCUGUGCUACACAUCGUAUGUACCGAAUCGGGAAAGGGAAAAAGGGUGGGAAAGUAUUAUGUUACGCCGUUCGGAUCUGCACUUCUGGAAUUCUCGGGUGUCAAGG` gave a log2 enrichment of 1.76.
The log2 enrichment of `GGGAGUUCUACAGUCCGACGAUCCCUGUGCUACACAUCGUAUGUACCGAAUCGGGCCCCCCGGGGCCCCCCGGGCCCCCCGGGAAAGUAUUAUGUUACGCCGUUCGGAUCUGCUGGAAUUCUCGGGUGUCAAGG` is reported as -2.11.
For `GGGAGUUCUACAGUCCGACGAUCCUGUGCUACACAUCGUAUGUACCGAAUCGGGAAAAAAAGGGGAAAAAAAGGGGAAAAAAAGGAAAGUAUUAUGUUACGCCGUUCGGAUCUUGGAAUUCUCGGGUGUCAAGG`, the log2 enrichment was -1.11.
`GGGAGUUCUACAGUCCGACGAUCCACAGACAACACGCACCCACACAGACACAGAGGGAAAAAGUUGGGAUGGGGACAGGGUGCACAGCAGGGCGGGGUAGGACCCCAGCCCCUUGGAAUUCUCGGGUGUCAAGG` has a log2 enrichment of -0.531.
`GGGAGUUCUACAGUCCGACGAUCAGUCCUGUGCUACACAUCGUAUGUACCGAAUCGGGAAAAAGGGUUUUUUUGGGAGGGAAAGUAUUAUGUUACGCCGUUCGGAUCUGCACUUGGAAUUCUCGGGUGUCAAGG` gave a log2 enrichment of 0.309.

Mixed results
Read-out: enzyme activity
Action: inhibitor
C[C@H](NC(=O)/C(C#N)=C/c1cccc(Br)n1)c1ccccc1 has an inhibition of 97.7% (Replicase polyprotein 1ab, main protease (rep, Severe acute respiratory syndrome coronavirus 2, UniProt P0DTD1); 20 µM, primary screen).
For C[n+]1c2cc(N)ccc2cc2ccc(N)cc21.Nc1ccc2cc3ccc(N)cc3nc2c1, the IC50 was 10 µM (Replicase polyprotein 1ab, 3C-like proteinase (rep, Middle East respiratory syndrome-related coronavirus, UniProt K9N7C7); MERS-CoV).

Some of these lines once more (study 2):
Under “fitted relative affinity”, `TCAAGGTCCCTTTTCATACTGTGCTAG` is recorded as 3.12 z-score.
For `TTAGGTTTCCTTTCCATTTAGTGCTAG`, “fitted relative affinity” read 10.5 z-score.
`TTAGATCTCAGTCTCGTTTAGTGCTAG`: “fitted relative affinity” 0.776 z-score.
Under “fitted relative affinity”, `TTAGGTATCCTTATCCTTAAGTGCTAG` is recorded as 5.71 z-score.
`TCATATACACTTATGACACTGTGCTAG`: “fitted relative affinity” 0.882 z-score.
`GACGATAACGGGACTGGAGACGTGCTA`: “fitted relative affinity” -0.496 z-score.
Under “fitted relative affinity”, `TCATTTCTTTGCTTCACACTGTGCTAG` is recorded as 1.96 z-score.
`GCCGAACTGAGTTTCGAGACGTGCTAG`: “fitted relative affinity” 2.19 z-score.
